Assay results from different studies.
A part holds a random share of what one study measured.

Study 1
Target: Interferon regulatory factor 7, full length, phosphomimetic (IRF7, Homo sapiens, UniProt Q92985, residues 1-503, S101K/S471D/S472D/S475D/S476D/S477D/S483D/S484D/S487D)
UniProt Q92985, sequence (whole entry, unmodified, looked up): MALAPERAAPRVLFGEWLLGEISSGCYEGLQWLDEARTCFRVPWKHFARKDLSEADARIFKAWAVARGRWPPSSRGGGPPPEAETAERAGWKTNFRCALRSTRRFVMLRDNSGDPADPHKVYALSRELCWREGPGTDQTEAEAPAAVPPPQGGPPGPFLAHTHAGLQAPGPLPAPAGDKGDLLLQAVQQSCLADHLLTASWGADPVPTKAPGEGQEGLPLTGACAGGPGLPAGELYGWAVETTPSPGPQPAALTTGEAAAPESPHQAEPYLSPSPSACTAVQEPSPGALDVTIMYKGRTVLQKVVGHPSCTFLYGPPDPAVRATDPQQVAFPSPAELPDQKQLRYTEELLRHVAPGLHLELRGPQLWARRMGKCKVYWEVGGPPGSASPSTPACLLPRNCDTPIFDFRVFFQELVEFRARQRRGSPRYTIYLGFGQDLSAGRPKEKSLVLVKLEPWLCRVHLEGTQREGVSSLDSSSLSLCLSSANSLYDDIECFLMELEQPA
Technique: protein-binding microarray
Form: double-stranded DNA, one strand shown
Matrix: in vitro
Tested at: 250 nM
Setting: 60-bp whole probe
With: salmon DNA 0.4 mg/ml
Reference: random background probes
Reading: higher = stronger binding
Quantity: log fluorescence
All sequences stand within: GCCTAGCAC … GTCTTGATTCGCTTGACGCTGCTG
Oligonucleotide = GAGGGACTGGGGACTGGGGACGTGCTA; result = -0.572 z-score
Oligonucleotide = GACGGACTGGACTATCTGGACGTGCTA; result = -0.637 z-score
Oligonucleotide = TTAGGACTGCGTTTCCTTTAGTGCTAG; result = 0.538 z-score
Oligonucleotide = GACGGACTACTTCTCCTGACGTGCTAG; result = -0.282 z-score
Oligonucleotide = GACTGACTGGGTCTCGGGACGTGCTAG; result = -0.304 z-score
Oligonucleotide = GACGGACTGTTACTGCTGACGTGCTAG; result = -0.497 z-score
Oligonucleotide = TTAGGACTGGGTATCGATTAGTGCTAG; result = 0.839 z-score
Oligonucleotide = GCCGATTTCGGGACTGGAGACGTGCTA; result = 0.295 z-score
Oligonucleotide = ACTCCTGTACATCTATGTAGGTGCTAG; result = 0.324 z-score
Oligonucleotide = GACGGACTGGGGTAACGGGACGTGCTA; result = -0.662 z-score
Oligonucleotide = TTGTTTCCATTTTCTGAATGCGTGCTA; result = 7.71 z-score
Oligonucleotide = TTAGAACTGGGGGCTGGATTAGTGCTA; result = 0.762 z-score
Oligonucleotide = TCATGCCTATTTTTCACACTGTGCTAG; result = 0.412 z-score
Oligonucleotide = GACGGACTGCTCTTCCTGACGTGCTAG; result = -0.476 z-score
Oligonucleotide = TTAGGTTTCGAAACTGGGTTAGTGCTA; result = 6.78 z-score
Oligonucleotide = GACGGTTTTGGTATCGGGACGTGCTAG; result = 1.73 z-score
Oligonucleotide = GACGATATCGGCTATCGAGACGTGCTA; result = -0.442 z-score
Oligonucleotide = TACGATATCAGTTTCGAGACGTGCTAG; result = 4.38 z-score
Oligonucleotide = GACGGTCTCTTACTGCTGACGTGCTAG; result = -0.463 z-score

Study 2
Target: Prothrombin, mature alpha-thrombin (F2, Homo sapiens, UniProt P00734)
Technique: aptamer microarray, sandwich
Form: DNA with 2'F-ANA
Matrix: in vitro
Tested at: 200 nM
Setting: whole 15-mer aptamer, many near background
With: Cy3 exosite-II aptamer, 400 nM
Reading: higher = stronger binding
Quantity: mean fluorescence intensity
Oligonucleotide: GGTTGGTGTGGTTGG
Modification = 2'F-ANA at 1 4 6 10 12 15; result = 85.2 a.u.
Modification = 2'F-ANA at 1 6 10 14; result = 46.4 a.u.
Modification = 2'F-ANA at 2 3 5 6 8 9 13 14 15; result = 51.1 a.u.
Modification = 2'F-ANA at 1 3 4 7 8 10 15; result = 126 a.u.
Modification = 2'F-ANA at 1 4 6 7 12 13 14; result = 157 a.u.
Modification = 2'F-ANA at 2 5 7 8 9 11 13; result = 66.8 a.u.
Modification = 2'F-ANA at 1 2 3 5 7 9 12 15; result = 119 a.u.
Modification = 2'F-ANA at 3 4 6 9 12 13 14 15; result = 238 a.u.
Modification = 2'F-ANA at 2 4 6 9 10 13; result = 67.7 a.u.
Modification = 2'F-ANA at 6 7 8 9 12 13 14 15; result = 216 a.u.
Modification = 2'F-ANA at 1 3 5 9 10 11 14 15; result = 46.4 a.u.
Modification = 2'F-ANA at 3 5 6 7 8 12 13 15; result = 192 a.u.
Modification = 2'F-ANA at 1 2 5 6 8 11; result = 54.1 a.u.
Modification = 2'F-ANA at 3 6 7 8 10 11 12 14 15; result = 366 a.u.
Modification = 2'F-ANA at 5 6 8 14; result = 44.4 a.u.
Modification = 2'F-ANA at 1 2 3 4 5 6 8 9 11 12 13 14; result = 64.7 a.u.
Modification = 2'F-ANA at 1 3 7 9 10; result = 99.3 a.u.
Modification = 2'F-ANA at 3 4 5 7 8 10 11 14 15; result = 52.9 a.u.

Study 3
Target: Sal-like protein 4, full length isoform A (SALL4, Homo sapiens, UniProt Q9UJQ4, residues 1-1053)
UniProt Q9UJQ4, sequence (whole entry, looked up): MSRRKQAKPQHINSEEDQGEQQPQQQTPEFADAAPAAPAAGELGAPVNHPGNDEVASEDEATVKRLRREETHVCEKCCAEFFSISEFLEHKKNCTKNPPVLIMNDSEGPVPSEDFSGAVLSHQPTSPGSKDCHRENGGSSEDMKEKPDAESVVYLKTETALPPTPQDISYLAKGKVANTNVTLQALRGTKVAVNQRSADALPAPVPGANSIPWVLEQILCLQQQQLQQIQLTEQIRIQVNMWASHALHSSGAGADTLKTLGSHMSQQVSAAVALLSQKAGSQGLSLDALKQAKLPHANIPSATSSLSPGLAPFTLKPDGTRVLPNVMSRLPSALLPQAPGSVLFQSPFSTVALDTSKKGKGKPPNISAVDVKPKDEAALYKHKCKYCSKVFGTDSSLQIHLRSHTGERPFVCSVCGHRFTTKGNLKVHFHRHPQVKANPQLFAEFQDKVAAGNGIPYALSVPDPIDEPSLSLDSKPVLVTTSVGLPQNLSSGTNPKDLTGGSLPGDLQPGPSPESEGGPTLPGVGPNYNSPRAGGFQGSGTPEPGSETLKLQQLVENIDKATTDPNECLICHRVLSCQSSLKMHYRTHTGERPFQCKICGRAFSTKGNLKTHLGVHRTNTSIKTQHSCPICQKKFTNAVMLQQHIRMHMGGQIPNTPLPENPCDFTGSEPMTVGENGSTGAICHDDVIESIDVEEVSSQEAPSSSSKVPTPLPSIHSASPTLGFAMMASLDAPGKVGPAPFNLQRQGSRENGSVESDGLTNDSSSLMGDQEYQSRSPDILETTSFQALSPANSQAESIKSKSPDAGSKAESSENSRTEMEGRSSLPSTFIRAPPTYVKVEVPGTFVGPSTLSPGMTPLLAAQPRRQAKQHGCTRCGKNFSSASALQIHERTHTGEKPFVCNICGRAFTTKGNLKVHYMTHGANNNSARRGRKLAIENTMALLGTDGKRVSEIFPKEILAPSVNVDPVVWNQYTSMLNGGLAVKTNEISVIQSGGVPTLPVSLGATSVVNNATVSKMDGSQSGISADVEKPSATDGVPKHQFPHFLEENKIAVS
Technique: universal PBM
Form: double-stranded DNA, one strand shown
Matrix: in vitro
Tested at: 600 nM
Setting: 8-mer, flanks averaged, mean of replicates
Reading: higher = stronger binding
Quantity: E-score
Oligonucleotide = AATTCAAT; result = 0.263
Oligonucleotide = CAGAGACC; result = -0.21
Oligonucleotide = ATACTGAT; result = 0.208
Oligonucleotide = CGATAACG; result = -0.0199
Oligonucleotide = ATAACTGA; result = 0.255
Oligonucleotide = AGGCATCG; result = -0.209
Oligonucleotide = AGAATTGA; result = 0.166
Oligonucleotide = ATGACGGA; result = 0.0827
Oligonucleotide = AAGACAAG; result = 0.0366
Oligonucleotide = CCAGCTTA; result = 0.0413
Oligonucleotide = AGCGCGCT; result = -0.222
Oligonucleotide = CTCGCCAC; result = -0.222
Oligonucleotide = AGCCCAAG; result = -0.245
Oligonucleotide = CGGATCCG; result = -0.32
Oligonucleotide = CGGTCGGA; result = -0.351
Oligonucleotide = ATGCTCCG; result = -0.216
Oligonucleotide = ACGCGATA; result = 0.0738
Oligonucleotide = CCCGCGCA; result = -0.281
Oligonucleotide = ATAGCGGC; result = -0.105
Oligonucleotide = CAGCTCAA; result = -0.0625
Oligonucleotide = GGACACAA; result = 0.0944
Oligonucleotide = GGCAGTAA; result = -0.133
Oligonucleotide = GGAAGCCC; result = -0.317
Oligonucleotide = CGGCCCTC; result = -0.433

Study 4
Target: RNA binding protein fox-1 homolog 2, RRM domain, GST-SBP tag (RBFOX2, Homo sapiens, UniProt O43251-10, residues 100-194)
Technique: RNA Bind-n-Seq
Form: RNA
Matrix: in vitro
Tested at: 365 nM
Setting: natural RNA segment, single round, ends assumed
Reference: no-protein control
Reading: higher = stronger binding
Quantity: RBNS enrichment (R)
Residues (chain): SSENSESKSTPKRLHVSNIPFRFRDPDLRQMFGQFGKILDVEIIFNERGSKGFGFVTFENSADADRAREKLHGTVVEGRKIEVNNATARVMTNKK
Oligonucleotide = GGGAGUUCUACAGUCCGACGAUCUUGGAAUUUACCAGUUAAUUACUCAGCAGAAUGGUGAUCACUCCAGGUAGUUUGGGGCAAAAAUCCGAGGUGCUUGGGAGUUUUGAAUGUUAAGAAUUGACCAUCUGCUUUGGAAUUCUCGGGUGCCAA; result = 0.987
Oligonucleotide = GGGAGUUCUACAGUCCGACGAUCAUUAAACAUGGCGUUAUUUAAGUAGUCCUGCUGCAAGAAAGGCACUUCAGUGAAUAUGUGACUAGUAAAGCUUAAAUAUGUUUGGAUCUAAUAGAGCUCAUGAAAUACUGUGGAAUUCUCGGGUGCCAA; result = 0.739
Oligonucleotide = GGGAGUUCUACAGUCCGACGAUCUUUCAUUUUUUACAACUGGACCUCCACCCACAACUUCCCCAGCCCAGCUGGGCUCCCUUUGUCAGAGUCAAUGGAUGAUGCUUCCAGGACAAAUCGGCUUCCUCUCCCCAUGGAAUUCUCGGGUGCCAA; result = 0.853
Oligonucleotide = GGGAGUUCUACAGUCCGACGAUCCUGGAUGGAGGCUGGUACUUACCCACCCCUUUUAGCUUUUAGGGAUUAAGGAAGGGUCAAGCCAGCCACUGCUGUGGCCCUGCCCAGGGCUUGGUUGAGGGAACGGCUUCUGGAAUUCUCGGGUGCCAA; result = 0.353
Oligonucleotide = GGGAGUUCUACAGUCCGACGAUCUUGUAUAAUUACAUUGAUGGCAAUGUAGAGUUUGAAUUUCAGUCUGUAAAUACUUUUUUGGAAAAUAGAAAUUUUUAUUGCUUUAAAGUUUUGGAUAUGGGUGGUUUUCUUGGAAUUCUCGGGUGCCAA; result = 0.954
Oligonucleotide = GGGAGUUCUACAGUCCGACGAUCCAGUGAGCGGCAGCCUCAGGGGCCUCAGGGGAGCCCCCACCCCACGGAUGUUGUCAGGAAUCAUGAUCUGACUUUAAUUGUGUGUCUUCUAUUAUAACUGCAUAGUAAUAUGGAAUUCUCGGGUGCCAA; result = 0.686
Oligonucleotide = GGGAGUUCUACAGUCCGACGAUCGAAGAGAAAUGGUCUCCUUGGUUUUAAAAAUAACUUAGUGUCACGGUACUUUCUCUGUCCUCUCAACUGAGGACAGUGACUAGUUAAUCUUGACAUAAUUGCAUUUGGCUUGGAAUUCUCGGGUGCCAA; result = 0.561
Oligonucleotide = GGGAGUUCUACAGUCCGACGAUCUACCUCACAUUUUUUGUUUCCAUUAGUAAUAUUCUAGGUACCUCACAAAAUGUAUUAUGGUGCCAUGGCUGUUAGUUUUUAGUGAGUGCUGUAGGAUUAAUUCGAAAAUAUGGAAUUCUCGGGUGCCAA; result = 0.61

For quick reference, copied from above (study 2):
Modification = 2'F-ANA at 3 5 6 7 8 12 13 15; result = 192 a.u.
Modification = 2'F-ANA at 5 6 8 14; result = 44.4 a.u.
Modification = 2'F-ANA at 1 3 4 7 8 10 15; result = 126 a.u.
Modification = 2'F-ANA at 1 3 7 9 10; result = 99.3 a.u.
Modification = 2'F-ANA at 2 5 7 8 9 11 13; result = 66.8 a.u.
Modification = 2'F-ANA at 3 4 6 9 12 13 14 15; result = 238 a.u.
